Published values gathered from unrelated publications.
Numbered parts are unrelated; each lists some results of a single study. Substitutions count along the parent as printed.

Set 1
Target: CRIPT, C-terminal peptide
Method: DHFR complementation, deep sequencing
Matrix: yeast
Setting: single substitutions, model-inferred values
Reference: wild type
Direction: higher = weaker binding
Measurement: binding free energy change
Parent: ERBIN, PDZ domain 1 (human); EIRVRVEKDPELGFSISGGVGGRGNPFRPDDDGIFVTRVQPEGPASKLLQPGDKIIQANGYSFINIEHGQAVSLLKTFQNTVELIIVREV; partner TKNYKQTSV
P29M: 0.0815 kcal/mol
G43K: 0.384 kcal/mol
G21C: 0.355 kcal/mol
A71Q: 0.496 kcal/mol
S62P: 0.0844 kcal/mol
N65I: 0.2 kcal/mol
H68I: 1.39 kcal/mol
S15V: 0.0631 kcal/mol
E1R: 0.0689 kcal/mol
N59E: -0.0599 kcal/mol
D9R: -0.396 kcal/mol
T81Y: 0.295 kcal/mol
N59W: 0.43 kcal/mol
A45H: 1.31 kcal/mol
L74D: 0.523 kcal/mol

Set 2
Target: CCNB3, cyclin fold, Cln2 fusion (human)
Method: yeast growth competition, sequencing
Matrix: yeast
Setting: weak parent motif
Reference: not given
Direction: higher = stronger binding
Measurement: normalised enrichment score
Parent: CDKN1B docking peptide (human); PSACRNLFGPVDH
PSACRNNFGPVDH [L7N]: -0.186
PSACRNLFGPVVH [D12V]: 0.294
GSACRNLFGPVDH [P1G]: 0.311
PSACRNLFGFVDH [P10F]: 0.31
PSACRNLWGPVDH [F8W]: 0.167
PSACRNLFGPVIH [D12I]: 0.14
PSACRNGFGPVDH [L7G]: 0.331
PSACRNLFIPVDH [G9I]: -0.000411
PSACRNLFGPDDH [V11D]: 0.271
PSACRNLFGPVDS [H13S]: 0.0992
PSACRNLFGPPDH [V11P]: 0.291
PSACRNLFGPVDL [H13L]: 0.35
PSACRNLFGPVDC [H13C]: 0.358
SSACRNLFGPVDH [P1S]: 0.288
PSAHRNLFGPVDH [C4H]: 0.295
PSACRNLFRPVDH [G9R]: -0.442
PSACRNLFGPVHH [D12H]: 0.23
PSACRNLFGPVFH [D12F]: 0.368
PSACRNYFGPVDH [L7Y]: 0.139
PSACRPLFGPVDH [N6P]: -0.291
PSACRNLFGPCDH [V11C]: 0.428
PSATRNLFGPVDH [C4T]: 0.121
PSACRVLFGPVDH [N6V]: 0.768
PSACRNFFGPVDH [L7F]: 0.446
PSACRCLFGPVDH [N6C]: 0.549

Set 3
Target: Fragile X messenger ribonucleoprotein 1, C-terminal low-complexity region (Fmr1, Mus musculus, UniProt P35922)
Method: RNA Bind-n-Seq
Molecule type: RNA
Matrix: in vitro
Concentration: 200 nM
Setting: whole 134-nt RNA, ends assumed
With: 150 mM KCl
Reference: input library
Direction: higher = stronger binding
Measurement: log2 enrichment
Constant ends, left off below: GGGAGUUCUACAGUCCGACGAUC … UGGAAUUCUCGGGUGUCAAGG
UUGCAGCAACUGCUACCAGCCUCCCAGUCCACACAGCUGCCAUGCUCAAGUUCCCCUCAGGAGACCACCCAGUCUCGCCCUAUGCCGCCG: 0.252
CUCAAGUCCUGUGCUACACAUCGUAUGUACCGAAUCGGCCGGGCCGGGCCGGGAAAGUAUUAUGUUACGCCGUUCGGAUCUGCACUUCCA: -0.382
AGUCCUGUGCUACACAUCGUAUGUACCGAAUCGGGGUUUUGGGGUUUUGGGUUUUGGGAAAGUAUUAUGUUACGCCGUUCGGAUCUGCAC: 0.565
ACCAUGCAGGUGGGCAUCUUUGGGAAGUGGGGCAAGGGGGGGAUAGGGAGGGGGGUAACACUUUGGGAACAGGUGGUCCCAGGUCAAAUC: 0.591
CACAGACAACACGCACCCACACAGACACAGAGGGAAGGGGUUGGGGUGGGGACAGGGUGCACAGCAGGGCGGGGUAGGACCCCAGCCCCU: 1.24
GAGGAGCUGCUGCUGGAGCCCGAGCCGGAGCCCGAGCCCGAAGAGGAGCCGCCCCGGCCCCGCGCCCCCCCGGGAGCUCCGGGCCCUGGG: 0.101
CAAGUCCUGUGCUACACAUCGUAUGUACCGAAUCGGAAAAAAAGGUGGUUUUUGGAAAGUAUUAUGUUACGCCGUUCGGAUCUGCACUUC: -0.743
UGGCUUCCUUCUUUCUAUUCCCCGCCUGCCUUCCAUGGUAGAGGCCAGUGACUUUGAGAUUAAUGGACUGGACUUCAUGGUAAGACCCUC: 0.26
AGUCCUGUGCUACACAUCGUAUGUACCGAAUCGGGGUGGGGUUUUUGGGGAAAGGGGAAAGUAUUAUGUUACGCCGUUCGGAUCUGCACU: 0.769
CUGUGCUACACAUCGUAUGUACCGAAUCGGGGUUUUUUUGGUUUUUUUGGGGUUUUUUUGGGAAAGUAUUAUGUUACGCCGUUCGGAUCU: -0.281
UCCUGUGCUACACAUCGUAUGUACCGAAUCGGAAAAAAGGGGAAAAAAGGAAAAAAGGGGAAAGUAUUAUGUUACGCCGUUCGGAUCUGC: -0.497
UGGCCCUGGUUGCAUGCGGGGAGGAAGAGGUGGCCUCAUGGAUCGUGGUGGUCCCGGUGGAAUGUUCAGAGGUGGCCGUGGUGGAGACAG: -0.0545
UCCUGUGCUACACAUCGUAUGUACCGAAUCGGGGUUUUUUUGGGGAAAGGGGAAAGGGGAAAGUAUUAUGUUACGCCGUUCGGAUCUGCA: 0.616
UGUGCUACACAUCGUAUGUACCGAAUCGGGGUUUUUUUGGGGUUUUUGGGGAAAAAAAGGGGAAAGUAUUAUGUUACGCCGUUCGGAUCU: 0.0481

Set 4
Target: CREB5, bZIP domain (human)
Method: DHFR protein complementation
Matrix: yeast
Setting: single substitutions, most at no-binding floor
Reference: wild-type JUN-FOS pair
Direction: higher = stronger binding
Measurement: binding fitness
Parent: JUN, bZIP domain (human); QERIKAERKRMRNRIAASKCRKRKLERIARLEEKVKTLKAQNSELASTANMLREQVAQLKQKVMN; partner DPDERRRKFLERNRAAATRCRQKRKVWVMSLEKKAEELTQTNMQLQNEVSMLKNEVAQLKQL
R53K: -0.339 natural log
V35I: -0.0735 natural log
R30S: -0.15 natural log
Q41W: -1.35 natural log
V35D: -1.4 natural log
A40G: -0.634 natural log
Q41L: -0.46 natural log
A46E: -0.184 natural log
S47H: -0.274 natural log
L38W: -1.45 natural log
A29V: -0.503 natural log
V35N: -1.18 natural log
E32C: -0.271 natural log
I28P: -0.822 natural log
Q55W: -0.99 natural log
L45P: -1.35 natural log
R30N: -0.31 natural log

Set 5
Target: Interferon regulatory factor 5, full length, phosphomimetic (IRF5, Homo sapiens, UniProt Q13568-2, residues 1-514, S451D/S453D/S456D/S462D)
Method: protein-binding microarray
Molecule type: double-stranded DNA, one strand shown
Matrix: in vitro
Concentration: 940 nM top
Setting: 60-bp whole probe
With: salmon DNA 0.4 mg/ml
Reference: random background probes
Direction: higher = stronger binding
Measurement: fitted relative affinity
Constant ends, left off below: GCCTAGCAC … GTCTTGATTCGCTTGACGCTGCTG
TTAGATTTCAGACTGGATTGGTGCTAG: -0.184 z-score
TTAGGACTGGACACTGGGTTAGTGCTA: -0.261 z-score
TTGTGTCAACTTTCTCTGCTCGTGCTA: 0.177 z-score
TCACAGTTTAATATCTAACTGTGCTAG: 0.111 z-score
TCATCATTATTGTGTCAAACTGTGCTA: 0.503 z-score
TCATTTATTTTTTTTATACTGTGCTAG: 1.83 z-score
TCAACTCTTCCTTTACTACTGTGCTAG: 1.83 z-score
GACGATATCGGGACGGGAGACGTGCTA: -0.402 z-score
TCAAATTAGTGTTTCCCACTGTGCTAG: -0.271 z-score
TTAGGTCTCGGTCTCGGTGAGTGCTAG: 5.08 z-score
TCATTATGCTCTTTCTAACTGTGCTAG: 0.848 z-score
TTAGTTCTCCTTTTCCTTTAGTGCTAG: 1.94 z-score
TTAGGTTTCGGTTTCGGTCAGTGCTAG: 16.3 z-score
TTAGATTTCGGGTTGCGATTAGTGCTA: 1.51 z-score
TTAGGTCTCGGTTTCGTTTAGTGCTAG: 7.66 z-score
TTTTGCTTTCCTTTATGTACGTGCTAG: 2.66 z-score
GACGGTATCCTGCTCCTGACGTGCTAG: -0.22 z-score
TAAGATATCAGTATCGATTAGTGCTAG: 5.18 z-score
GACGGACTGAGTATCGGGACGTGCTAG: 1.03 z-score
TCATTTTTGTATTTTTGACTGTGCTAG: 0.757 z-score
TGTGGCTTAGCTGTCACCTCGTGCTAG: -0.36 z-score
CACGGACTGGGACTGGGGACGTGCTAG: -0.558 z-score
TTAAGTATCGGACTGGGTTAGTGCTAG: 3.19 z-score
TTATGTTTCCTTTTCCTTTAGTGCTAG: 1.88 z-score
TTCTGATTGAATCTCCCATTGTGCTAG: 0.433 z-score

A few entries again (set 4):
I28P: -0.822 natural log
A46E: -0.184 natural log
R30S: -0.15 natural log
A40G: -0.634 natural log
Q41W: -1.35 natural log
L38W: -1.45 natural log
E32C: -0.271 natural log
R53K: -0.339 natural log
L45P: -1.35 natural log
